Published values pooled from the literature.
Compare with care: the assays were run in different laboratories. ± marks the error that the study gave.

NC1(c2ccccc2Cl)CCCCC1=O (racemic)
Tmax (male Wistar rats, plasma; intraperitoneal, 40 mg/kg once daily for 14 days, day 14): 34.8 ± 27.6 min

CN1CC[C@@]23CCCC[C@@H]2[C@@H]1Cc1ccc(O)cc13
Tmax (Wistar rat, both sexes, plasma; oral, 5 mg/kg DEM, DEM 2 h after pretreatment, with: TCE 100 mg/kg single pretreatment): 28.2 ± 13.2 min

O=c1nc(NO)ccn1[C@@H]1O[C@H](CO)[C@@H](O)[C@H]1O
Tmax (microdialysis; rat, pregnant female, blood; intravenous, 100 mg/kg of molnupiravir, with: NBMPR 10 mg/kg i.v.): 43 ± 3 min

CNC(=O)c1ccc(-c2cnn3ccc(C(=O)N(C)c4ccc(Cl)c(C(=O)OC)c4)cc23)cc1
Tmax (Wistar rats, both sexes, plasma; oral, 50 mg/kg/day, day 1): 30 min

COc1ccc2c(c1)[C@]13CCCC[C@@H]1[C@H](C2)N(C)CC3
Tmax (Wistar rat, both sexes, plasma; oral, 5 mg/kg, 2 h after pretreatment, with: single quinidine 2.5 mg/kg): 25.8 ± 13.8 min

CCCC(=O)OCSc1ccccc1C(=O)NCCC(N)=O
Tmax (Sprague-Dawley rat, male, plasma; intravenous, 50 mg/kg, first sampling time): 1.98 min

O=C(CC(=O)c1ccccc1)c1ccccc1
Tmax (Sprague-Dawley rat, male, plasma; oral, 10 mg/kg, regular emulsion): 120 ± 81 min

Cc1cccc(C)c1OCC(=O)N[C@@H](Cc1ccccc1)[C@@H](O)C[C@H](Cc1ccccc1)NC(=O)[C@H](C(C)C)N1CCCNC1=O
Tmax (male Sprague-Dawley rats, plasma; oral, 160 mg/kg, alone): 360 min
